Assay results of several laboratories.
Each numbered part is a random draw from the data of one study; scales do not carry over between parts. Positions count from the first letter of the parent shown.

Study 1
Target: CEP164, C-terminal peptide (human)
Method: DHFR complementation, deep sequencing
Medium: yeast
Setting: single substitutions, model-inferred values
Relative to: wild type
Direction: higher = weaker binding
Parent: PDZK1, PDZ domain 2 (human); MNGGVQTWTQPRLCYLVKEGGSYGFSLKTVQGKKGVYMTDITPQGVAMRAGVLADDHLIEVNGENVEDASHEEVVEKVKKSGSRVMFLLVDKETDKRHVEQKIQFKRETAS; partner HNRVKVYRF
`H57F` — result for “binding free energy change”: 0.0973 kcal/mol.
`S111D` — result for “binding free energy change”: -0.0874 kcal/mol.
For `V75D`, “binding free energy change” read 2.64 kcal/mol.
`T109L`: “binding free energy change” -0.138 kcal/mol.
`V52P`: “binding free energy change” 1.04 kcal/mol.
`R84W`: “binding free energy change” 0.297 kcal/mol.
For `K28W`, “binding free energy change” read -0.368 kcal/mol.
For `D56F`, “binding free energy change” read 0.626 kcal/mol.
Under “binding free energy change”, `T39Q` is recorded as 0.954 kcal/mol.
`T39I` — result for “binding free energy change”: 0.00436 kcal/mol.
Under “binding free energy change”, `G3N` is recorded as -0.079 kcal/mol.
`V36F` — result for “binding free energy change”: 0.895 kcal/mol.
Under “binding free energy change”, `E93N` is recorded as -0.231 kcal/mol.
Under “binding free energy change”, `E72H` is recorded as 0.549 kcal/mol.
Under “binding free energy change”, `G82N` is recorded as 0.691 kcal/mol.
`R97I`: “binding free energy change” -0.213 kcal/mol.
Under “binding free energy change”, `T9N` is recorded as -0.0746 kcal/mol.
`G20E`: “binding free energy change” 0.0928 kcal/mol.
`E19P`: “binding free energy change” 0.589 kcal/mol.
`R84E`: “binding free energy change” -0.0787 kcal/mol.
`Q101S`: “binding free energy change” -0.0615 kcal/mol.

Study 2
Target: PABPC1L2, full length, GST fusion (mouse, UniProt A0ABA7IW68)
Method: RNAcompete
Molecule type: RNA
Medium: in vitro
Tested at: 20 nM
Setting: 7-mer, probes averaged, single round
Relative to: mean of 7-mers
Direction: higher = stronger binding
Construct (chain): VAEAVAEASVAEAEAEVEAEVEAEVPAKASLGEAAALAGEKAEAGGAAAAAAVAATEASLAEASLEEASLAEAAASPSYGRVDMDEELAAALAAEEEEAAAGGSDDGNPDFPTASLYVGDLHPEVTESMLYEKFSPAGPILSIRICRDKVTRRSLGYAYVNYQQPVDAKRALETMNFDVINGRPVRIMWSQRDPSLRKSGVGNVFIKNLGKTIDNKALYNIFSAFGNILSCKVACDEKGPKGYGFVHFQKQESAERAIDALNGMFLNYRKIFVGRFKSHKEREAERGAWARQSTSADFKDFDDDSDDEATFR
The 7-mer Z-score of `AUGGUAC` is reported as -0.0935.
For `AGAUGAC`, the 7-mer Z-score was -0.211.
For `ACGUCCC`, the 7-mer Z-score was -0.331.
`CAGAAGU` has a 7-mer Z-score of -0.159.
`AGAUGUC` gave a 7-mer Z-score of -0.306.
With `UCAUUGC` the 7-mer Z-score was -0.282.
`UAUGAUC` has a 7-mer Z-score of -0.229.
The 7-mer Z-score of `CCGAAGU` is reported as -0.249.
For `AGGAGAC`, the 7-mer Z-score was 0.171.
`UCAAACG` has a 7-mer Z-score of -0.0663.
With `AUAUACU` the 7-mer Z-score was -0.117.
For `UCCUGAU`, the 7-mer Z-score was -0.338.
`AAGCUCC` has a 7-mer Z-score of -0.18.
For `GGAAUGU`, the 7-mer Z-score was -0.0881.
The 7-mer Z-score of `GAGAAUU` is reported as -0.101.
With `UCGCGGC` the 7-mer Z-score was -0.32.
The 7-mer Z-score of `ACAAGCU` is reported as -0.00652.
For `CGGAUUC`, the 7-mer Z-score was -0.313.

Study 3
Target: ABI1, truncated, D143A, DHFR fusion (Arabidopsis thaliana)
Method: DHFR PCA, deep sequencing
Medium: yeast
Setting: methotrexate growth selection, single substitutions
Added: (+)-ABA 0.032 µM
Relative to: wild-type fitted maximum
Direction: higher = stronger binding
Parent: PYL1, truncated, DHFR fusion (Arabidopsis thaliana); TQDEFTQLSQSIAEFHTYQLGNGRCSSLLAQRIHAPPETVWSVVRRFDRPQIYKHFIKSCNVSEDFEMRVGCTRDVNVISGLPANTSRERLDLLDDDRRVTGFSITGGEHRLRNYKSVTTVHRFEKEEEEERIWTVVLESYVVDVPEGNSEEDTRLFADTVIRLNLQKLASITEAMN
For `S42F`, “relative binding score” read -1.31%.
`S80N`: “relative binding score” 35%.
For `V62W`, “relative binding score” read -3%.
Under “relative binding score”, `E89Q` is recorded as 5.6%.
`V76C`: “relative binding score” -1.12%.
For `N22P`, “relative binding score” read 57.3%.
Under “relative binding score”, `S42V` is recorded as 0.2%.
`R74E` — result for “relative binding score”: -1.51%.
For `R90S`, “relative binding score” read -3.86%.
For `S11T`, “relative binding score” read 24.1%.

Study 4
Target: CCND1, cyclin fold, Cln2 fusion (human)
Method: yeast growth competition, sequencing
Medium: yeast
Setting: weak parent motif
Relative to: not given
Direction: higher = stronger binding
Parent: RRM2 docking peptide (human); SKTARRIFQEPTE
`T12A`: “normalised enrichment score” 0.449.
`I7A`: “normalised enrichment score” 0.023.
Under “normalised enrichment score”, `Q9A` is recorded as 0.573.
Under “normalised enrichment score”, `R5A` is recorded as 0.308.
For `F8A`, “normalised enrichment score” read 0.442.
Under “normalised enrichment score”, `K2A` is recorded as 0.322.

Study 5
Target: RNA binding protein fox-1 homolog 2, RRM domain, GST-SBP tag (RBFOX2, Homo sapiens, UniProt O43251-10, residues 100-194)
Method: RNA Bind-n-Seq
Molecule type: RNA
Medium: in vitro
Tested at: 365 nM
Setting: natural RNA segment, single round, ends assumed
Relative to: no-protein control
Direction: higher = stronger binding
Constant ends, left off below: GGGAGUUCUACAGUCCGACGAUC … UGGAAUUCUCGGGUGCCAA
`GCCUCCCUACACCUCAUACCCUGCCUGCCUCCUCCAGGAGGAAUCUCCGGGGCCCCUUCCUGACUCUCCCCACCUUCGCCACUUGUCUCUAGGCUAUGGGACAAUCAUCC`: “RBNS enrichment (R)” 1.65.
Under “RBNS enrichment (R)”, `AUUGAUUUUAACCCUGAGGUUACAAAGCAGAAGUUAAAUGAACAGCUAGAGGAAGCAGCCUUCCCACACGUCAGCACCGUAUGCUAAUUUGCUGGAACAGGACGGUUUGG` is recorded as 1.78.
Under “RBNS enrichment (R)”, `CGGAGUUGGGGGUACCCGUUGCAGAGCCAGGGACAUGAUGCAGGCGAAGCUUGGGAUCUGGCCAAGUUGGACUUUGAUCCUUUGGGCAGAUGUCCCAUUGCUCCCUGGAG` is recorded as 0.622.
For `AAAAGGGCCAGAUUUUCAGCAGCCAAGGACAUCCAUACCCAAGUGAAUGUGAUGGGACUUAAAAGAAGUGAACUGAGACAAUUCACUCUGGCUGUUUGAACAGCAGCGUU`, “RBNS enrichment (R)” read 0.702.
Under “RBNS enrichment (R)”, `AAUAUCAUAUAUCAUCAGUUAGCAAUAUUAGCAUUUCAAUCAGUGAUUUGAAUGUUGAUACUUUUUUUUCCUUUACAUUUCCAGUAAGUUUCUUACAGAAAGUACCUGUG` is recorded as 0.637.
For `CCUUAGCCAGCCAGUGACAAGUGAAUCCAGACGUCACCCAUGUGUUUUGGAACAUUUAUGUAAGAUUGAAAUGUAUUUGAGAACUGCAUUAAAACUUUUAACUAAAGCCC`, “RBNS enrichment (R)” read 0.565.
`GAAACCAAAGAUAAACUCUGGAGGGAUCUCCUGCUGCCUUGCUUUCUUUCCUCCCUAAUUCCAAAAACCACAAAGGUUUCCCUGAGUGCAGAGAGAUCAGCCCACCCUGC`: “RBNS enrichment (R)” 0.504.
`UAUGUCUUUAAAUUUUGGUAAAUAUGUAGAUACCAAGCAUUAAUAACUAAUGCACACAGAAAUUUAAUAUACAGCAAUUCUUUGAAUGUUCCAGGUGUACGUAAACUAAC`: “RBNS enrichment (R)” 4.31.

Study 6
Target: HLF, bZIP domain (human)
Method: DHFR protein complementation
Medium: yeast
Setting: single substitutions, most at no-binding floor
Relative to: wild-type JUN-FOS pair
Direction: higher = stronger binding
Parent: JUN, bZIP domain (human); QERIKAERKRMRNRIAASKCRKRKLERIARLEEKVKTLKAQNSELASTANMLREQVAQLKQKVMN; partner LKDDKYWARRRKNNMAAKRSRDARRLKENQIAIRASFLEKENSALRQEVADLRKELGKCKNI
For `E33I`, the binding fitness was -1.44 natural log.
For `T48H`, the binding fitness was -1.43 natural log.
The binding fitness of `V56S` is reported as -1.41 natural log.
The binding fitness of `I28Q` is reported as -1.43 natural log.
`L38I` gave a binding fitness of -1.45 natural log.
`K39S` gave a binding fitness of -1.32 natural log.
For `N42S`, the binding fitness was -1.5 natural log.
For `T37K`, the binding fitness was -1.5 natural log.
`V56A` has a binding fitness of -1.55 natural log.
With `L31I` the binding fitness was -1.49 natural log.
The binding fitness of `S47I` is reported as -1.45 natural log.
The binding fitness of `N42G` is reported as -1.49 natural log.
The binding fitness of `A40T` is reported as -1.27 natural log.
With `K36G` the binding fitness was -1.47 natural log.
For `M51S`, the binding fitness was -1.42 natural log.
With `V56F` the binding fitness was -1.54 natural log.
`S47V` gave a binding fitness of -1.35 natural log.
With `R30N` the binding fitness was -1.47 natural log.
`E32C` has a binding fitness of -1.42 natural log.

Other studies, line by line
`PhoQ, residues 284 288 289 292 302 303 SMMNNA` gave a fold induction of 0.596 (PhoP, residues 12 14 15 18 19 TTLRV (Escherichia coli, UniProt P23836); Sort-seq, item: YFP reporter; E. coli; PhoQ-PhoP variant library, added: 10 µM Mg2+; relative to: high Mg2+ state, higher = stronger signaling).

Some of these lines once more (study 2):
`AGAUGUC` gave a 7-mer Z-score of -0.306.
`AAGCUCC` has a 7-mer Z-score of -0.18.
For `ACGUCCC`, the 7-mer Z-score was -0.331.
For `UCCUGAU`, the 7-mer Z-score was -0.338.
For `GGAAUGU`, the 7-mer Z-score was -0.0881.
The 7-mer Z-score of `CCGAAGU` is reported as -0.249.
The 7-mer Z-score of `GAGAAUU` is reported as -0.101.
The 7-mer Z-score of `AUGGUAC` is reported as -0.0935.
`UAUGAUC` has a 7-mer Z-score of -0.229.
For `AGGAGAC`, the 7-mer Z-score was 0.171.
For `AGAUGAC`, the 7-mer Z-score was -0.211.
